Experimental data of several laboratories.
Each line is one published result; not all experiments were run side by side.
Cell line: HL-60

SMILES	test	setting	scale	endpoint	value
CC[C@H](C)[C@H](NC(=O)CN)C(=O)NCC(=O)N[C@@H](CCCCN)C(=O)N[C@@H](Cc1ccccc1)C(=O)N[C@@H](CC(C)C)C(=O)N[C@@H](Cc1c[nH]cn1)C(=O)N[C@@H](CO)C(=O)N[C@@H](C)C(=O)N[C@@H](CCCCN)C(=O)N[C@@H](CCCCN)C(=O)N[C@@H](Cc1ccccc1)C(=O)NCC(=O)N[C@@H](CCCCN)C(=O)N[C@@H](C)C(=O)N[C@@H](Cc1ccccc1)C(=O)N[C@H](C(=O)NCC(=O)N[C@@H](CCC(=O)O)C(=O)N[C@H](C(=O)N[C@@H](CCSC)C(=O)N[C@@H](CC(N)=O)C(=O)N[C@@H](CO)C(N)=O)[C@@H](C)CC)C(C)C	MTT	52 µM	–	cytotoxicity	inactive
F[P-](F)(F)(F)(F)F.F[P-](F)(F)(F)(F)F.[Ru+2].c1ccc(-c2ccccn2)nc1.c1ccc(-c2ccccn2)nc1.c1csc(-c2ccc(-c3ccc(-c4cc5cccnc5c5ncccc45)s3)s2)c1	cell viability	red light 625 nm	baseline: dark EC50 over light EC50	phototherapeutic index	76
CC(Cc1ccc(Cl)cc1)=C(c1ccc(Cl)cc1)c1ccc(OCCN(C)C)cc1	cell growth or viability, SRB	–	–	GI50	3.89 µM
CC[C@H](C)[C@H](NC(=O)[C@H](CCCNC(=N)N)NC(=O)[C@H](CCCNC(=N)N)NC(=O)[C@H](CC(C)C)NC(=O)[C@H](Cc1c[nH]c2ccccc12)NC(=O)[C@H](CCCCN)NC(=O)[C@H](CCCNC(=N)N)NC(=O)[C@H](CCCCN)NC(=O)[C@H](CCCNC(=N)N)NC(=O)[C@H](CCCNC(=N)N)NC(=O)CN)C(=O)NCC(=O)N[C@@H](CCCCN)C(=O)NCC(=O)N[C@H](C(=O)N[C@@H](CCCCN)C(=O)N[C@H](C(=O)N[C@H](C(=O)NCC(=O)NCC(=O)N[C@@H](C)C(=O)N[C@@H](C)C(=O)N[C@@H](CC(C)C)C(=O)N[C@@H](CC(=O)O)C(=O)N[C@@H](Cc1c[nH]cn1)C(=O)N[C@@H](CC(C)C)C(N)=O)[C@@H](C)CC)[C@@H](C)CC)C(C)C	scanning electron microscopy	32 µg/mL, 1 min	–	cell size	16 µm
CC1CCC2C(C)C(OC(=O)CCC(=O)N(CCCc3cn(-c4ccc(CN5CCOCC5)cc4)nn3)CCNc3ccnc4cc(Cl)ccc34)OC3OC4(C)CCC1C32OO4 (stereo not shown)	cell growth or viability, resazurin	10 µM, 48 h	–	inhibition	63%
F[P-](F)(F)(F)(F)F.F[P-](F)(F)(F)(F)F.[Ru+2].c1ccc(-c2ccccn2)nc1.c1ccc(-c2ccccn2)nc1.c1csc(-c2cc3cccnc3c3ncccc23)c1	cell growth or viability, resazurin	dark	–	EC50	> 300 µM
CC1CCC2C(C)C(OC(=O)CCC(=O)N(CCCc3cn(-c4ccc([N+](=O)[O-])cc4)nn3)CCNc3ccnc4cc(Cl)ccc34)OC3OC4(C)CCC1C32OO4 (stereo not shown)	cell growth or viability, resazurin	10 µM, 48 h	–	inhibition	63.1%
CC1=CCC23OC2(C)CCC2C(C[N+](C)(C)C)C(=O)OC2C13.[I-] (stereo not shown)	cell growth or viability, SRB	8.3 µM	–	inhibition	80.3%
C/C1=C\CC[C@@]2(C)O[C@H]2[C@H]2OC(=O)C(C)[C@@H]2CC1 (stereo partly shown)	cell growth or viability, resazurin	–	–	IC50	> 500 µM
CC1CCC2C(C)C(OC(=O)CCC(=O)N(CCCc3cn(-c4ccc(C#N)cc4)nn3)CCNc3ccnc4cc(Cl)ccc34)OC3OC4(C)CCC1C32OO4 (stereo not shown)	cell growth or viability, resazurin	10 µM, 48 h	–	inhibition	65.4%
